Published values collected from several papers.
Numbered parts are unrelated; each lists some results of a single study.

Sample 1
Target: Histone acetyltransferase KAT6A, both winged helices, GST fusion (KAT6A, Homo sapiens, UniProt Q92794, residues 1-181)
Method: protein binding microarray
Molecule type: double-stranded DNA, one strand shown
Medium: in vitro
Tested at: not given
Setting: 8-mer, flanks averaged, mean of 2 arrays, mostly near background
Relative to: not given
Reading: higher = stronger binding
Measurement: E-score
Residues (chain): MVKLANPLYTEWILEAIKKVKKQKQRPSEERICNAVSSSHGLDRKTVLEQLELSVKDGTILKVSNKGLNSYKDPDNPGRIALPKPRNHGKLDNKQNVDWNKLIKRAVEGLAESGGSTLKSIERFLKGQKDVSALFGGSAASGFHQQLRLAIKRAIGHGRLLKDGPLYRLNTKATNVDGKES
Sequence = AAAGCACA; value = -0.188
Sequence = CGCATTCC; value = 0.16
Sequence = AGAAGTAC; value = -0.114
Sequence = TTTGCAAA; value = -0.189
Sequence = AGCCCTTC; value = -0.0407
Sequence = AATACAGG; value = 0.0195
Sequence = AAAGACTT; value = -0.214
Sequence = ACGCAAGA; value = 0.0514

Sample 2
Cell line: HEK-293T/ACE2
Tested at: 10 µM
Time: 16 h
Relative to: vehicle
Measurement: viability
Compound = Nc1nc(Cl)nc2c1ncn2[C@H]1C[C@H](O)[C@@H](CO)O1; value = 80.7%
Compound = CCCNC(C)C(=O)Nc1c(C)csc1C(=O)OC (stereo not shown); value = 97%
Compound = N[C@@H](Cc1ccc(O)c(O)c1)C(=O)O; value = 101%

Sample 3
Target: Replicase polyprotein 1ab, polymerase (rep, Severe acute respiratory syndrome coronavirus 2, UniProt P0DTD1)
Observed: enzyme activity
Action: inhibitor
Tested at: 20 µM
Measurement: inhibition
SMILES = N=C(N)N; value = 4.76%
SMILES = COc1ccc(-c2nc(N3CCOCC3)c3sc(CN(C)c4ncc(C(=O)NO)cn4)cc3n2)cn1; value = 3.9%
SMILES = COc1ccc2cc1Oc1ccc(cc1)C[C@H]1c3c(cc4c(c3Oc3cc5c(cc3OC)CCN(C)[C@@H]5C2)OCO4)CCN1C; value = 0.69%
SMILES = CCN(CC)CCNC(=O)c1cc(Br)c(N)cc1OC; value = 5.62%
SMILES = Cc1cc(CCCOc2c(C)cc(-c3noc(C(F)(F)F)n3)cc2C)on1; value = 3.04%
SMILES = O=C(O)C(Cc1c[nH]c2ccccc12)N1C(=O)c2ccccc2C1=O (stereo not shown); value = 2.25%
SMILES = c1ccc(CN2CCC3(CCc4ccccc43)CC2)cc1; value = -0.8%
SMILES = COc1ccc(CN(C(=O)[C@@H](N)Cc2c(C)cc(C(N)=O)cc2C)[C@@H](C)c2ncc(-c3ccccc3)[nH]2)cc1C(=O)O; value = -0.38%
SMILES = CC(C)=CCC[C@]1(C)C=Cc2c(O)c3c(c(CC=C(C)C)c2O1)O[C@]12C(=C[C@@H]4C[C@H]1C(C)(C)O[C@@]2(C/C=C(/C)C(=O)O)C4=O)C3=O; value = 3.05%
SMILES = O=C(NCCN1CCOCC1)c1ccc(Cl)cc1; value = -4.36%
SMILES = COc1cc2c(cc1OC)[C@H]1CC(=O)[C@H](CC(C)C)CN1CC2; value = -0.78%
SMILES = O=C1C=C2C=C[C@@H]3C[C@@]2(O1)[C@H]1CCCCN31; value = -4.93%
SMILES = CC(/C=C1\SC(=S)N(CC(=O)O)C1=O)=C\c1ccccc1; value = 0.29%
SMILES = Nc1c(CC(=O)O)cccc1C(=O)c1ccc(Br)cc1; value = -7.09%
SMILES = CC(C)C(=O)c1c(C(C)C)nn2ccccc12; value = 0.03%
SMILES = CNC(C)(C)Cc1ccccc1; value = -4.94%
SMILES = CC1(C)S[C@@H]2[C@H](NC(=O)C(C(=O)O)c3ccccc3)C(=O)N2[C@H]1C(=O)O (stereo partly shown); value = 1.02%
SMILES = O=c1[nH]c(=O)c2ccccc2o1; value = -8.67%
SMILES = CC[N+](C)(CC)CCOC(=O)C(O)(c1ccccc1)C1CCCCC1 (stereo not shown); value = -3.54%
SMILES = Cc1c(C(=O)NN2CCCCC2)nn(-c2ccc(Cl)cc2Cl)c1-c1ccc(Cl)cc1; value = 2.94%
SMILES = Cc1cnc(C(=O)N[C@H]2CCCCC/C=C\[C@@H]3C[C@@]3(C(=O)NS(=O)(=O)C3CC3)NC(=O)[C@@H]3C[C@@H](Oc4nc5ccccc5c5ccccc45)CN3C2=O)cn1; value = 1.5%
SMILES = CCC(=O)N[C@@H]1Cc2ccccc2[C@H](c2ccccc2)C1; value = 1.69%
SMILES = C[C@]12CC[C@H]3[C@@H](CCC4=CC(=O)CC[C@@]43C)[C@@H]1CC[C@@H]2O; value = 0.69%
SMILES = C[C@@H](N)[C@@H](O)c1ccccc1; value = 25.2%
SMILES = Oc1ccc(Cl)cc1; value = 26.7%

Sample 4
Target: Interferon regulatory factor 7, full length, phosphomimetic (IRF7, Homo sapiens, UniProt Q92985, residues 1-503, S101K/S471D/S472D/S475D/S476D/S477D/S483D/S484D/S487D)
Method: protein-binding microarray
Molecule type: double-stranded DNA, one strand shown
Medium: in vitro
Tested at: 250 nM
Setting: 60-bp whole probe
Together with: salmon DNA 0.4 mg/ml
Relative to: random background probes
Reading: higher = stronger binding
Measurement: log fluorescence
Constant ends, left off below: GCCTAGCAC … GTCTTGATTCGCTTGACGCTGCTG
Target sequence (chain): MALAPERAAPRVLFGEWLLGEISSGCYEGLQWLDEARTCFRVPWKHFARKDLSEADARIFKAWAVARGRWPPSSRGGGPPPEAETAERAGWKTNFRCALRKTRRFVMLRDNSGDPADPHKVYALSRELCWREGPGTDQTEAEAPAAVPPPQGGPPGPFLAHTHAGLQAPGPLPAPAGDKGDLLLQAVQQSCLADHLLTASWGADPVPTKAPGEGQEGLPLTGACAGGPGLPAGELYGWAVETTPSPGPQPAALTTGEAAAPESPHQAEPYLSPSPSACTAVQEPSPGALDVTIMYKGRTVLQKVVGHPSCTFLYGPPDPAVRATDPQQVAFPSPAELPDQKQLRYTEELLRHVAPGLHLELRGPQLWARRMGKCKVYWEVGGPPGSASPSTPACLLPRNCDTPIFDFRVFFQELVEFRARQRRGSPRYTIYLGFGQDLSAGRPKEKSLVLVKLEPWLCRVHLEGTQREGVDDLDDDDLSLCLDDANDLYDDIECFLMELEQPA
Sequence = GTAGGTTTCGGGACTGGGTTAGTGCTA; value = 3.23 z-score
Sequence = CTGCGGTGAGTGCGTTATCGGTGCTAG; value = -1.24 z-score
Sequence = GACGGTATCCTTATCGTGACGTGCTAG; value = -0.0751 z-score
Sequence = TCTAATCTCACTCTGTCCCTGTGCTAG; value = 0.253 z-score
Sequence = TCATATATTCATATATAACTGTGCTAG; value = 0.437 z-score
Sequence = TTAGGTTTCTGACTGGGTTAGTGCTAG; value = 0.921 z-score
Sequence = GACGGACGGCTTATCCTGACGTGCTAG; value = -1.02 z-score
Sequence = TTAGATTGCAGACTGGATTAGTGCTAG; value = -0.33 z-score

Sample 5
Target: Replicase polyprotein 1ab, 3C-like proteinase (rep, Middle East respiratory syndrome-related coronavirus, UniProt K9N7C7)
Observed: enzyme activity
Action: inhibitor
Tested at: 10 µM
Measurement: inhibition
SMILES = Cc1ccc(-n2sc(=O)n(Cc3ccc(F)cc3)c2=O)cc1; value = 35%
SMILES = COC(=O)/C=C/c1cc(O)ccc1O; value = 40%
SMILES = CC(C)Nc1cccnc1N1CCN(C(=O)c2cc3cc(NS(C)(=O)=O)ccc3[nH]2)CC1; value = 34%

Sample 6
Target: Sal-like protein 4, full length isoform A (SALL4, Homo sapiens, UniProt Q9UJQ4, residues 1-1053)
Chain of UniProt Q9UJQ4 (whole entry, looked up): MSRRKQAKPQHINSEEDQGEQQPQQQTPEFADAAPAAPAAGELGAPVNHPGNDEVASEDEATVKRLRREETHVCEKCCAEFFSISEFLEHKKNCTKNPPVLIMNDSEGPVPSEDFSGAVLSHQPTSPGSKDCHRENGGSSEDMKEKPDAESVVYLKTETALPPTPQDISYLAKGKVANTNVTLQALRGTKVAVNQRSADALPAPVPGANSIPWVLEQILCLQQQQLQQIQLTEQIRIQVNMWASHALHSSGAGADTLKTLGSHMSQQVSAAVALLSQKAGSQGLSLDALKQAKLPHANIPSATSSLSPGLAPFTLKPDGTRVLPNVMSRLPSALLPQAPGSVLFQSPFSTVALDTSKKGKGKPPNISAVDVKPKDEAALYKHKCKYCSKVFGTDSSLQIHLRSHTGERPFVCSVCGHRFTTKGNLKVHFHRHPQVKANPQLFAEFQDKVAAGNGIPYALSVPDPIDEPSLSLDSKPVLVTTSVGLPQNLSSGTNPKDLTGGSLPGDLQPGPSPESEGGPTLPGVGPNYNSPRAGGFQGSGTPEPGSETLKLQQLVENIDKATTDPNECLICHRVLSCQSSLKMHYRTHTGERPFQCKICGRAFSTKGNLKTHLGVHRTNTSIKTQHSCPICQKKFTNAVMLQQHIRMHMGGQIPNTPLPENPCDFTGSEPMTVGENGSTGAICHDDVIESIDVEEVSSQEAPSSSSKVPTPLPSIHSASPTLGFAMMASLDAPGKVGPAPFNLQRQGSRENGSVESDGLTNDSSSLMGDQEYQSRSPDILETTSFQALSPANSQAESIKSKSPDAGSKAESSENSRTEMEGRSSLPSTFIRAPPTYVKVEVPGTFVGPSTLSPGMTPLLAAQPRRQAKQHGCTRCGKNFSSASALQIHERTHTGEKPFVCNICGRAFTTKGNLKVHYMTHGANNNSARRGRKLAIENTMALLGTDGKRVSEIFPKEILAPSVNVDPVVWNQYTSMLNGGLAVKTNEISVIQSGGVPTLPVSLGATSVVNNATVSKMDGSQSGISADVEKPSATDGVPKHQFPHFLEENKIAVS
Method: universal PBM
Molecule type: double-stranded DNA, one strand shown
Medium: in vitro
Tested at: 600 nM
Setting: 8-mer, flanks averaged, mean of replicates
Reading: higher = stronger binding
Measurement: E-score
Sequence = CATGCACC; value = -0.0713
Sequence = GTACGAAC; value = 0.163
Sequence = AACCCCCA; value = -0.228
Sequence = CGAGCAGC; value = -0.132
Sequence = CACGAATC; value = -0.0842

For quick reference, copied from above (sample 6):
Sequence = GTACGAAC; value = 0.163
Sequence = CATGCACC; value = -0.0713
Sequence = AACCCCCA; value = -0.228
Sequence = CACGAATC; value = -0.0842
Sequence = CGAGCAGC; value = -0.132
